Measurements gathered from unrelated publications.
Each numbered part is a random draw from the data of one study; scales do not carry over between parts. Positions count from the first letter of the parent shown.

Set 1
Target: ABI1, truncated, D143A, DHFR fusion (Arabidopsis thaliana)
Technique: DHFR PCA, deep sequencing
Sample: yeast
Notes: methotrexate growth selection, single substitutions
Added: (+)-ABA 0.39 µM
Reference: wild-type fitted maximum
Reading: higher = stronger binding
Endpoint: relative binding score
Starting sequence: PYL1, truncated, DHFR fusion (Arabidopsis thaliana); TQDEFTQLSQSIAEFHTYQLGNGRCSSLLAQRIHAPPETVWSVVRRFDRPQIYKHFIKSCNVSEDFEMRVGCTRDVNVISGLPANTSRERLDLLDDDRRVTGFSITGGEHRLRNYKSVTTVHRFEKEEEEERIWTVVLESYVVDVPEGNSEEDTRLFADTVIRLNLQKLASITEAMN
I33Y: -1.38%
E152Q: 32.7%
L138S: 0.923%
W41M: -9.52%
N22V: 50.4%
N149W: 7.85%
Y115H: 9.53%
E125L: 31.8%
V100H: -11.9%
H16S: 3.22%
D95L: -13.4%
N77T: 76%
L8W: 16.6%

Set 2
Target: CCNF, cyclin fold, Cln2 fusion (human)
Technique: yeast growth competition, sequencing
Sample: yeast
Notes: strong parent motif
Reference: not given
Reading: higher = stronger binding
Endpoint: normalised enrichment score
Starting sequence: CDKN1A docking peptide (human); SKACRRLFGPVDS; partner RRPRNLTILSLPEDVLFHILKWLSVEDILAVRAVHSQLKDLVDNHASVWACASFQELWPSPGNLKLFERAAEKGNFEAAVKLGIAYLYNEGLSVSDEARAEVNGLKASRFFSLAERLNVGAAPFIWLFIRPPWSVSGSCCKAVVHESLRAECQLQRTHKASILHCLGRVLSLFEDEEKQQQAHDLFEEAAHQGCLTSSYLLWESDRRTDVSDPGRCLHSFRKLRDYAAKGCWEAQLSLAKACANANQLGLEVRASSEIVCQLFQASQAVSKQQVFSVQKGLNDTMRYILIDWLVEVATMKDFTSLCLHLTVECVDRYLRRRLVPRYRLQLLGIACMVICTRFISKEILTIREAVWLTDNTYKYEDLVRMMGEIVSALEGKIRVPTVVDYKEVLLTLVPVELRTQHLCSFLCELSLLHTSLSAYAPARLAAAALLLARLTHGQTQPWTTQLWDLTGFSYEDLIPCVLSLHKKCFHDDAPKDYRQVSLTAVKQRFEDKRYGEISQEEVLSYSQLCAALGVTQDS
P10W: 6.72
V11P: 7.31
L7A: 0.366
F8M: 0.902
L7C: 0.457
S1A: 7.82
R6D: 3.4
G9Y: 8.56
V11C: 7.58
G9T: 7
D12I: 7.38
K2F: 7.15
C4F: 2
F8S: 0.66
F8D: 0.592
G9S: 7.38
L7G: 0.571
K2I: 7.02
C4I: 5.57
R5F: 0.452
G9V: 7.14
D12N: 7.26
L7W: 0.907
G9P: 8.1
F8I: 1.03

Set 3
Target: RING finger protein unkempt homolog, zinc fingers 1-6, GST-SBP tag (UNK, Homo sapiens, UniProt Q9C0B0, residues 30-357)
Technique: RNA Bind-n-Seq
Form: RNA
Sample: in vitro
Tested at: not given
Notes: RNA with constant flanks, human and mouse sites, ends assumed
Reference: input RNA pool
Reading: higher = stronger binding
Endpoint: bound/input enrichment
Constant ends, left off below: GGGAGUUCUACAGUCCGACGAUC … CAACAGAGGAUUGAGCAUCA
Target sequence (chain): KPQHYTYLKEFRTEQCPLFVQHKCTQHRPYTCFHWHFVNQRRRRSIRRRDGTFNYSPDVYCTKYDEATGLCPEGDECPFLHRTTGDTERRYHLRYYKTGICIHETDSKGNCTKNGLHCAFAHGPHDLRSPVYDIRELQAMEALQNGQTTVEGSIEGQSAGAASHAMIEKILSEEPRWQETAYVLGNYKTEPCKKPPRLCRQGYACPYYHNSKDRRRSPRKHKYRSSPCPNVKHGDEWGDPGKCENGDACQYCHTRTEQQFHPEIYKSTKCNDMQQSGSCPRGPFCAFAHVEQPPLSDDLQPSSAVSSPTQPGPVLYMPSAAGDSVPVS
AUCAACGUUCGGAAAGGCAGCAUCUCGGGGAUUAGCAUGGUCCUGGCAGCCUACGUGGUUUUCAGCUACUGCAUUUCUUACAAGGAACUCAAACAUGAGCGGCGACGCAAGUACCACUGA: 0.107 ratio
CAGAACCUACCUUCUGGAUCAUCACGUGUUGGAGCCAUUAAGCUUACCUACAUUUCAAAGGUUAGCGAUGCUACUAAGCUAAGGCCAAAGGCGGAGUUCUGUUUUGUUAUGAAUGCAGGA: 0.0747 ratio
CACCUCAAAGUCUUUGCAAAACCCAAAAUCACAUAUGUAGAGAACCAGACUGCCAUGGAAUUAGAGGAGCAGGUCACUCUUACCUGUGAAGCCUCCGGAGACCCCAUUCCCUCCAUCACC: 0.352 ratio
ACUAAACAGGAAGGGAUGGAAGGUCUCCUUGGGACUCUUGUUCAGCUUCUGGGUUCAGAUGAUAUAAAUGUGGUCACCUGUGCAGCUGGAAUUCUUUCUAACCUCACUUGCAAUAAUUAU: 0.14 ratio
AGCCUGUGCCCUUUUGCCUUCUGGGCCCGUAUAUGGGUCUUUGCUUGACCAAAGAGGAUCACAUGUUACUCCUUUCUGCACGGCCUUUAUCCUGCGGGCUCCCAGGGCAGGGACCUGAGC: 0.116 ratio
UCGGUACUUGAUUCAGCUCUUCAUCCACCACCCCGUGGACCUUUUCCUCCAGGAGAUAUUUUUAGUCAACCAGAAAGACCUUUUUUAGCUCCUGGAAGACAAAGCGUAGACAAUGUUACU: 0.303 ratio
UGUUACUCUGAUGGCACCGCAGUUCAUGAAAGCCACACAAAAAAUGCUUCAUUUUACGCUAGCUCUUCAACUCUCUACUACCAAAUAGAUAGUCACAUCCCAGGAACUCCUAGCCAGCUC: 0.198 ratio
GGGAUGACAAAAGUAUUCCUUUUUCAGAUGCCCCAAGGAAGCCACCAUGUGGGGCUUCACAUGCUCCAGCCAGGUUGUCCAAGCAGGUGCCGUCCACCACACUGCUGGCUGCUCUUGCAC: 0.133 ratio

Set 4
Target: Sal-like protein 4, full length isoform B (SALL4, Homo sapiens, UniProt Q9UJQ4-2, residues 1-616)
Technique: universal PBM
Form: double-stranded DNA, one strand shown
Sample: in vitro
Tested at: not given
Notes: 8-mer, flanks averaged, mean of replicates
Reading: higher = stronger binding
Endpoint: E-score
Residues (chain): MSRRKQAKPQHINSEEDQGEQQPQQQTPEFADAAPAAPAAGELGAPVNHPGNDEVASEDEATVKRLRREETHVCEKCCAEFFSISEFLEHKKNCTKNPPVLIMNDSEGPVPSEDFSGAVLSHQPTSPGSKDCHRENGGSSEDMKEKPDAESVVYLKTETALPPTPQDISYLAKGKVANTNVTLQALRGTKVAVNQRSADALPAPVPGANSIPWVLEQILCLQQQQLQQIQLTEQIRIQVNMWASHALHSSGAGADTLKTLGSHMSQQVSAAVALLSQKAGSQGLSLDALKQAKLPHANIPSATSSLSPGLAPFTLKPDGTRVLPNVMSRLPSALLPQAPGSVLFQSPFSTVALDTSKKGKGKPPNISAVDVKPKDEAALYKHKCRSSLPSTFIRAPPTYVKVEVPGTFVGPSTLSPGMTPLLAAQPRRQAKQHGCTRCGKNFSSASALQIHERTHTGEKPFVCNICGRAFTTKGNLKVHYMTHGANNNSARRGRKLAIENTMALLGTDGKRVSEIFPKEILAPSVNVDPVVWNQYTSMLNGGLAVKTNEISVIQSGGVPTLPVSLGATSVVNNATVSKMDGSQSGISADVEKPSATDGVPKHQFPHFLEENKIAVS
ATTAACGG: 0.115
CTCTTGGC: -0.168
AGCGCAGA: -0.297
CCAGACCA: -0.156
ACGGGGAT: -0.17
AGCCTCTG: -0.158
CCTAACGC: -0.0806
GAAATCTC: 0.0147
GTCTTATA: 0.289
GGGTAGTA: 0.00616
ACGACAGC: -0.0809
AAGGTGGA: -0.15
ATATCGCA: 0.151
CCTCTCGA: -0.173
CTGGCCGA: -0.257
CGTAGCCA: -0.00494
CACGTTAG: -0.0055
GTCTTACA: 0.113
CTTCCTCC: -0.253
ATTACTGG: 0.114
GAAGGATA: 0.0414
AACGGTCC: -0.222
